Published values gathered from unrelated publications.
Each numbered part is a random draw from the data of one study; scales do not carry over between parts. Values joined by “and” are separate records of one study, mostly repeats; a detail may differ. In brackets after ≈: the same amount, converted by molar mass.
Chain of UniProt P07342 (whole entry, looked up): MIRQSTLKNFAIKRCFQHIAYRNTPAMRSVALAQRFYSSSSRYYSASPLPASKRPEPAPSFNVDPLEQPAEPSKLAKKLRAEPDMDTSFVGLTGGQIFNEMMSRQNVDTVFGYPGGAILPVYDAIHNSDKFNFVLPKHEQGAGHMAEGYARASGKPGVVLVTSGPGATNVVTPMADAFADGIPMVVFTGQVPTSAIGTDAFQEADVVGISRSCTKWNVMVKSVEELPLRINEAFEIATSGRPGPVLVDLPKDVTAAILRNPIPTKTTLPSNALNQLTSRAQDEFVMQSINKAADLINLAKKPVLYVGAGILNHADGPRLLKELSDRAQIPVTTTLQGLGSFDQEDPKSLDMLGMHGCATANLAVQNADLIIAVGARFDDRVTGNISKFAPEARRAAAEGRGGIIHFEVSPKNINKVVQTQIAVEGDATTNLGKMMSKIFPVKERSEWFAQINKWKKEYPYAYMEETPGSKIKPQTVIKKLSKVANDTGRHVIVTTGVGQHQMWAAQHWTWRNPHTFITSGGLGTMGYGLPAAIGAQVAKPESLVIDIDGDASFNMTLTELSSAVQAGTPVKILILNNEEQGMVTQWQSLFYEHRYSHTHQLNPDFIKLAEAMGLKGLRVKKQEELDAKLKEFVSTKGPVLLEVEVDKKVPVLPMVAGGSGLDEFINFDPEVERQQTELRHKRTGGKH

Sample 1
SMILES: CCCCC[C@@H]1CC(=O)N[C@@H](C(C)C)C(=O)N[C@H](CCC(=O)O)C(=O)N[C@@H](CCCNC(=N)N)C(=O)NCC(=O)N2CCC[C@H]2C(=O)N[C@@H](CC(C)C)C(=O)N[C@H](CCC(N)=O)C(=O)N[C@@H](CCC(=O)O)C(=O)N[C@H](Cc2ccc(O)cc2)C(=O)N[C@H](Cc2c[nH]c3ccccc23)C(=O)NCCCC(=O)O1
organism	test	system	setting	MIC [µg/mL]
Staphylococcus aureus		USA300	together with: menaquinone 1 µg/mL	16 (≈ 10.8 µM)
Staphylococcus aureus		USA300	together with: menaquinone 32 µg/mL	> 64
Staphylococcus aureus		USA300	together with: menaquinone 16 µg/mL	> 64
Escherichia coli	microbial growth		16 h	> 64
Staphylococcus aureus		USA300	together with: menaquinone 0.0625 µg/mL	4 (≈ 2.69 µM)
Staphylococcus aureus		USA300	together with: ubiquinone 16 µg/mL	4 (≈ 2.69 µM)
Staphylococcus aureus		USA300	together with: menaquinone 0.5 µg/mL	8 (≈ 5.38 µM)
Staphylococcus aureus		USA300	together with: menaquinone 0.25 µg/mL	8 (≈ 5.38 µM)

Sample 2
SMILES: Cn1cc(-c2cccc(CN3CCC4(CC3)COc3c4ccc4c3CN([C@H]3CCC(=O)NC3=O)C4=O)c2)cn1
Time: time not given
target or system	test	system	setting	recovery [%]
	plasma protein binding	mouse plasma		72.8
	plasma protein binding	monkey plasma		73.5
	plasma protein binding	rat plasma		63.3
Caco-2			apical to basolateral	78.1
Caco-2			basolateral to apical	58.9
	plasma protein binding	human plasma		83.1

Sample 3
Compound: N=C(N)NCCCCCCN1CCC23c4c5ccc(O)c4OC2c2nc4ccccc4cc2CC3(O)C1C5 (centres unmarked)
Technique: modified Racine scale
Host: C57BL/6J mice, male
Route: intracerebroventricular
Dose: 100 nmol
Reading: direction not given
setting	seizure score
10 min	0
70 min	0
80 min	0
35 min	0
60 min	0
50 min	0
45 min	0

Other studies, line by line
SMILES	target or system	test	system	setting	quantity	value
C#CCN1C(=O)C(O)(C(=O)O)Oc2cc(F)ccc21 (centres unmarked)	Acetolactate synthase catalytic subunit, mitochondrial (Saccharomyces cerevisiae S288c, UniProt P07342)	binding, microscale thermophoresis			Kd	12 mM
C=CCN1C(=O)C(O)(C(=O)O)Oc2cc(F)ccc21 (centres unmarked)	Arabidopsis thaliana		Col-0	100 µg/mL, seed germination, single repetition	hypocotyl length	1.38 cm and 1.31 cm and 1.36 cm and 1.32 cm

Some of these lines once more (sample 1):
organism	test	system	setting	MIC [µg/mL]
Escherichia coli	microbial growth		16 h	> 64
Staphylococcus aureus		USA300	together with: menaquinone 0.0625 µg/mL	4 (≈ 2.69 µM)
Staphylococcus aureus		USA300	together with: ubiquinone 16 µg/mL	4 (≈ 2.69 µM)
Staphylococcus aureus		USA300	together with: menaquinone 0.5 µg/mL	8 (≈ 5.38 µM)
